{"data": "Results pooled from the literature", "organism": "Pseudomonas aeruginosa", "note": "Each line is one published result; not all experiments were run side by side."}
{"SMILES": "Nc1nc2ccc(Oc3cccnc3)cc2s1", "test": "pyocyanin production", "test system": "PA14-lux", "conditions": "200 µM, 18 h", "how to read": "reference: DMSO vehicle", "measurement": "inhibition", "result": "18%"}
{"SMILES": "O=C(C#Cc1ccc(F)c(F)c1)c1ccccc1Cl", "conditions": "10 µM, 24 h", "how to read": "reference: untreated", "measurement": "exoprotease production", "result": "50%"}
{"SMILES": "CC[C@H](C)[C@H](NC(=O)[C@H](CC(C)C)NC(=O)[C@@H]1CCCN1C(=O)[C@@H](N)CC(C)C)C(=O)N[C@H](C(=O)N[C@@H](Cc1ccccc1)C(=O)N[C@@H](CC(C)C)C(=O)N[C@@H](CCCNC(=N)N)C(=O)N[C@@H](CC(N)=O)C(=O)N[C@@H](CCCNC(=N)N)C(=O)N[C@@H](CC(C)C)C(=O)N[C@@H](CCCCN)C(=O)N[C@@H](Cc1ccc(O)cc1)C(=O)O)[C@@H](C)CC", "measurement": "MBC", "result": "128 mg/L"}
{"SMILES": "CC1(C)SC2C(NC(=O)C(NC(=O)C3=C(O)C(Cc4ccsc4)NC3=O)c3ccccc3)C(=O)N2C1C(=O)O (stereo not shown)", "test system": "pvcA mutant", "measurement": "MIC", "result": "50 mg/L"}
{"SMILES": "Nc1nc2ccc(CN3CCNC3=O)cc2s1", "test": "swarming area, modified FAB agar", "test system": "PA14-lux", "conditions": "200 µM, 24 h", "how to read": "reference: DMSO vehicle", "measurement": "inhibition", "result": "15.1%"}
{"SMILES": "COc1cc2ccc3oc([N+](=O)[O-])cc3c2cc1OC", "test": "REMA", "measurement": "MIC90", "result": "> 32 mg/L"}
{"SMILES": "CC1(C)S[C@@H]2[C@H](NC(=O)C(C(=O)O)c3ccccc3)C(=O)N2[C@H]1C(=O)O (stereo partly shown)", "test system": "pvdS mutant", "measurement": "MIC", "result": "25 mg/L"}
{"SMILES": "CC[C@H](C)[C@H](NC(=O)[C@H](C)NC(=O)[C@H](CCCCN)NC(=O)[C@H](CC(C)C)NC(=O)[C@H](C)NC(=O)[C@@H](NC(=O)[C@H](Cc1c[nH]cn1)NC(=O)[C@H](CC(C)C)NC(=O)[C@@H](NC(=O)[C@@H](NC(=O)[C@H](CCCCN)NC(=O)[C@H](C)NC(=O)[C@H](C)NC(=O)[C@H](CO)NC(=O)[C@H](CCCCN)NC(=O)[C@H](Cc1ccccc1)NC(=O)[C@@H](NC(=O)[C@H](CCCCN)NC(=O)[C@H](CC(C)C)NC(=O)[C@H](Cc1ccccc1)NC(=O)[C@H](CO)NC(=O)[C@H](CCCCN)NC(=O)[C@H](Cc1c[nH]c2ccccc12)NC(=O)[C@H](CCCCN)NC(C)=O)[C@@H](C)O)[C@@H](C)O)C(C)C)[C@@H](C)O)C(=O)N[C@@H](CO)C(=O)N[C@@H](CO)C(N)=O", "conditions": "43 strains", "measurement": "MIC50", "result": "8 mg/L"}
{"SMILES": "O=[N+]([O-])c1cc2cc3ccc4oc([N+](=O)[O-])cc4c3cc2o1", "test": "REMA", "measurement": "MIC90", "result": "> 32 mg/L"}
{"SMILES": "CC(C)(C)Oc1ccc(CC2NC(=O)C(C(=O)NC(C(=O)NC3C(=O)N4C3SC(C)(C)C4C(=O)O)c3ccccc3)=C2O)cc1 (stereo not shown)", "test system": "pqsE mutant", "measurement": "MIC", "result": "6.25 mg/L"}
{"SMILES": "COc1ccc2c(ccc3oc([N+](=O)[O-])c(OC)c32)c1", "test": "REMA", "measurement": "MIC90", "result": "> 32 mg/L"}
{"SMILES": "CC[C@H](C)[C@H](NC(=O)[C@H](Cc1ccc(O)cc1)NC(=O)[C@@H](NC(=O)[C@H](Cc1ccc(O)cc1)NC(=O)[C@@H]1CCCN1C(=O)[C@@H](NC(=O)[C@H](C)N)[C@@H](C)CC)[C@@H](C)CC)C(=O)N[C@@H](Cc1c[nH]c2ccccc12)C(=O)N[C@@H](CCCNC(=N)N)C(=O)N[C@@H](CC(C)C)C(=O)N[C@@H](CC(C)C)C(=O)N[C@@H](CCCNC(=N)N)C(=O)N[C@@H](CCCCN)C(=O)NCC(=O)O", "test system": "PAO1", "conditions": "18 h, 37 °C", "measurement": "MBC", "result": "> 15 µM"}
{"SMILES": "Nc1nc2ccc(S(=O)(=O)c3cnn(CC4COC4)c3)cc2s1", "test": "swarming area, modified FAB agar", "test system": "PA14-lux", "conditions": "200 µM, 24 h", "how to read": "reference: DMSO vehicle", "measurement": "inhibition", "result": "-6.51%"}
{"SMILES": "COc1cccc(C(=O)C#Cc2ccc(O)c(OC)c2)c1", "conditions": "10 µM, 24 h", "how to read": "reference: untreated", "measurement": "exoprotease production", "result": "77%"}
{"SMILES": "Nc1nc2ccc(Oc3ccc(=O)[nH]c3)cc2s1", "test": "swarming area", "test system": "PA14-lux", "conditions": "200 µM, 24 h", "how to read": "reference: DMSO", "measurement": "swarming inhibition", "result": "26.3%"}
{"SMILES": "CC(C)CC1NC(=O)C(C(=O)NC(C(=O)NC2C(=O)N3C2SC(C)(C)C3C(=O)O)c2ccccc2)=C1O (stereo not shown)", "test": "broth microdilution", "test system": "TonB-dependent receptor mutant", "conditions": "PA two-allele library", "measurement": "MIC", "result": "25 mg/L"}
{"SMILES": "O=C(O)c1cccc(C(=O)O)n1", "test system": "VIM-2 producer", "conditions": "32 µg/mL, with: meropenem", "measurement": "meropenem MIC", "result": "2 mg/L"}
{"SMILES": "CC[C@H](C)[C@H](NC(=O)[C@H](Cc1ccc(O)cc1)NC(=O)[C@@H](NC(=O)[C@H](Cc1c[nH]c2ccccc12)NC(=O)[C@@H]1CCCN1C(=O)[C@@H](NC(=O)[C@H](C)N)[C@@H](C)CC)[C@@H](C)CC)C(=O)N[C@@H](Cc1ccc(O)cc1)C(=O)N[C@@H](CCCNC(=N)N)C(=O)N[C@@H](CC(C)C)C(=O)N[C@@H](CC(C)C)C(=O)N[C@@H](CCCNC(=N)N)C(=O)N[C@@H](CCCCN)C(=O)NCC(=O)O", "test system": "PAO1", "conditions": "18 h, 37 °C", "measurement": "MBC", "result": "15 µM"}
{"SMILES": "Cc1c([N+](=O)[O-])oc2ccc3ccccc3c12", "test": "REMA", "measurement": "MIC90", "result": "> 32 mg/L"}
{"SMILES": "CC(C)C[C@H](NC(=O)[C@H](CCN)NC(=O)[C@H](CCN)NC(=O)[C@@H](Cc1ccccc1)NC(=O)[C@H](CC(C)C)NC(=O)[C@H](CCN)NC(=O)[C@H](CCN)NC(=O)[C@@H](CCN)NC(=O)[C@@H](N)CSCCOC(=O)c1ccccc1)C(N)=O", "test system": "PAO1", "conditions": "24 h, 37 °C", "measurement": "MBC", "result": "128 µM"}
{"SMILES": "CC1(C)S[C@@H]2[C@H](NC(=O)[C@H](N)c3ccccc3)C(=O)N2[C@H]1C(=O)O", "test system": "fptA mutant", "measurement": "MIC", "result": "> 200 mg/L"}
{"SMILES": "O=C(O)CN(CC(=O)O)CC(=O)O", "test system": "VIM-2 and OXA-50 producer", "conditions": "32 µg/mL, with: meropenem", "measurement": "meropenem MIC", "result": "2 mg/L"}
{"SMILES": "COc1cc2oc([N+](=O)[O-])cc2c2ccccc12", "test": "REMA", "measurement": "MIC90", "result": "> 32 mg/L"}
{"SMILES": "COc1cc(C#CC(=O)CC(C)C)ccc1O", "conditions": "10 µM, 24 h", "how to read": "reference: untreated", "measurement": "exoprotease production", "result": "91%"}
{"SMILES": "Nc1nc2ccc([S+]([O-])c3ccncc3)cc2s1 (stereo not shown)", "test": "swarming area, modified FAB agar", "test system": "PA14-lux", "conditions": "200 µM, 24 h", "how to read": "reference: DMSO vehicle", "measurement": "inhibition", "result": "27.1%"}
{"SMILES": "COc1cccc(C(=O)C#Cc2ccc(F)c(F)c2)c1", "conditions": "10 µM, 24 h", "how to read": "reference: untreated", "measurement": "rhamnolipid production", "result": "31%"}
{"SMILES": "Cn1c(=O)ccc2ccc(F)c(CCNC[C@H]3CN(c4cnc5c(n4)NC(=O)CO5)C(=O)O3)c21", "measurement": "MIC90", "result": "1 mg/L"}
{"SMILES": "Nc1nc2ccc(S(=O)(=O)c3cnn(CCO)c3)cc2s1", "test": "swarming area, modified FAB agar", "test system": "PA14-lux", "conditions": "200 µM, 24 h", "how to read": "reference: DMSO vehicle", "measurement": "inhibition", "result": "11.4%"}
{"SMILES": "COc1ccccc1C(=O)C#Cc1ccc(F)c(F)c1", "conditions": "10 µM, 24 h", "how to read": "reference: untreated", "measurement": "rhamnolipid production", "result": "32%"}
{"SMILES": "CC[C@H](C)[C@H](NC(=O)[C@H](CC(N)=O)NC(=O)[C@H](CCCCN)NC(=O)[C@H](CC(=O)O)NC(=O)[C@H](Cc1ccc(O)cc1)NC(=O)[C@H](Cc1ccc(O)cc1)NC(=O)[C@H](Cc1ccc(O)cc1)NC(=O)[C@H](CCCNC(=N)N)NC(=O)[C@H](CC(C)C)NC(=O)CNC(=O)[C@H](CCCNC(=N)N)NC(=O)[C@@H](N)CO)C(=O)N[C@H](C(=O)N[C@@H](Cc1c[nH]cn1)C(=O)N[C@@H](CCCCN)C(=O)N[C@H](C(=O)N[C@@H](C)C(=O)NCC(=O)N[C@@H](CCCCN)C(=O)N[C@@H](CCCNC(=N)N)C(=O)N[C@@H](Cc1ccc(O)cc1)C(=O)N[C@H](C(=O)N[C@@H](Cc1ccc(O)cc1)C(=O)N[C@@H](CCCNC(=N)N)C(=O)N[C@@H](Cc1ccccc1)C(=O)N[C@H](C(=O)O)C(C)C)C(C)C)[C@@H](C)O)[C@@H](C)CC", "measurement": "MBC", "result": "64 mg/L"}
{"SMILES": "NC(=O)COc1ccc2nc(N)sc2c1", "test": "swarming area", "test system": "PA14-lux", "conditions": "200 µM, 24 h", "how to read": "reference: DMSO", "measurement": "swarming inhibition", "result": "4.27%"}
{"SMILES": "COc1cc(C#CC(=O)c2ccccc2OC)ccc1O", "conditions": "10 µM, 24 h", "how to read": "reference: untreated", "measurement": "exoprotease production", "result": "66%"}
{"SMILES": "N=C(N)NCCC[C@H](NC(=O)[C@H](Cc1c[nH]c2ccccc12)NC(=O)[C@@H](N)CCCNC(=N)N)C(=O)N[C@@H](Cc1c[nH]c2ccccc12)C(=O)N[C@@H](CCC(N)=O)C(=O)N[C@@H](Cc1ccccc1)C(=O)N[C@@H](CCC(N)=O)C(=O)N[C@@H](Cc1ccccc1)C(=O)N[C@@H](CCCCN)C(N)=O", "measurement": "MBC", "result": "620 µM"}
{"SMILES": "O=[N+]([O-])c1cc2c(ccc3c4cc([N+](=O)[O-])oc4ccc23)o1", "test": "REMA", "measurement": "MIC90", "result": "> 32 mg/L"}
{"SMILES": "O=C(C#Cc1ccc(F)c(F)c1)c1cccc(Cl)c1", "conditions": "10 µM, 24 h", "how to read": "reference: untreated", "measurement": "exoprotease production", "result": "47%"}
{"SMILES": "Nc1cc(S(=O)(=O)c2ccc3nc(N)sc3c2)ccn1", "test": "swarming area, modified FAB agar", "test system": "PA14-lux", "conditions": "200 µM, 24 h", "how to read": "reference: DMSO vehicle", "measurement": "inhibition", "result": "-31.5%"}
{"SMILES": "N#Cc1ccc2c(ccc3oc([N+](=O)[O-])cc32)c1", "test": "REMA", "measurement": "MIC90", "result": "> 32 mg/L"}
{"note": "Excerpt of the above:"}
{"SMILES": "CC(C)CC1NC(=O)C(C(=O)NC(C(=O)NC2C(=O)N3C2SC(C)(C)C3C(=O)O)c2ccccc2)=C1O (stereo not shown)", "test": "broth microdilution", "test system": "TonB-dependent receptor mutant", "conditions": "PA two-allele library", "measurement": "MIC", "result": "25 mg/L"}
{"SMILES": "O=C(C#Cc1ccc(F)c(F)c1)c1cccc(Cl)c1", "conditions": "10 µM, 24 h", "how to read": "reference: untreated", "measurement": "exoprotease production", "result": "47%"}
{"SMILES": "Nc1cc(S(=O)(=O)c2ccc3nc(N)sc3c2)ccn1", "test": "swarming area, modified FAB agar", "test system": "PA14-lux", "conditions": "200 µM, 24 h", "how to read": "reference: DMSO vehicle", "measurement": "inhibition", "result": "-31.5%"}
